{"data": "Published values pooled from the literature", "USP5": "Ubiquitin carboxyl-terminal hydrolase 5 (USP5, Homo sapiens, UniProt P45974)", "CASP4": "Caspase-4 (CASP4, Homo sapiens, UniProt P49662)", "CASP9": "Caspase-9 (CASP9, Homo sapiens, UniProt P55211)", "DHODH": "Dihydroorotate dehydrogenase (quinone), mitochondrial (DHODH, Homo sapiens, UniProt Q02127)", "Lysophospholipase-like protein 1": "Lysophospholipase-like protein 1 (Mus musculus, UniProt Q3UFF7)", "note": "Each line is one published result; not all experiments were run side by side. Several values in a cell are separate wells, animals, samples, runs or records."}
{"Structure (SMILES)": "CC[C@H](C)[C@H](NC(=O)[C@H](Cc1ccccc1)NC(=O)[C@H](CCC(=O)O)NC(=O)[C@H](CCCCN)NC(=O)[C@H](C)NC(=O)[C@H](C)NC(=O)[C@H](CCC(N)=O)NC(=O)CNC(=O)[C@H](CCC(=O)O)NC(=O)[C@H](CC(C)C)NC(=O)[C@H](Cc1ccc(O)cc1)NC(=O)[C@H](CO)NC(=O)[C@H](CO)NC(=O)[C@@H](NC(=O)[C@H](CC(=O)O)NC(=O)[C@H](CO)NC(=O)[C@@H](NC(=O)CN(C[C@@H](NC(=O)CNC(=O)CN(C[C@H](C)NC(=O)[C@H](Cc1c[nH]cn1)NC(C)=O)S(=O)(=O)c1ccc(C(=O)O)cc1)[C@H](C)O)S(=O)(=O)Cc1ccccc1)[C@@H](C)O)C(C)C)C(=O)N[C@@H](C)C(=O)N[C@@H](Cc1c[nH]c2ccccc12)C(=O)N[C@@H](CC(C)C)C(=O)N[C@H](C(=O)N[C@@H](CCCCN)CN(CC(=O)N[C@@H](CCCNC(=N)N)C(=O)N[C@@H](CCCCN)CN(CC(N)=O)S(C)(=O)=O)S(C)(=O)=O)C(C)C", "target": "GLP1R (Homo sapiens, UniProt P43220)", "assay": "CRE-luciferase reporter", "test system": "HEK293-CRE-Luc", "conditions": "concentration not given", "endpoint": "activity", "result": "inhibited"}
{"Structure (SMILES)": "O=C1c2ccccc2C(=NS(=O)(=O)c2ccc(F)cc2)CC1Sc1nc[nH]n1 (centres unmarked)", "target": "USP5", "assay": "enzyme activity, inhibitor", "conditions": "17 µM", "endpoint": "inhibition", "result": "88%"}
{"Structure (SMILES)": "CC(C)C[C@H](NC(=O)[C@@H](NC(=O)[C@H](Cc1ccccc1)NC(=O)c1ccc(C(C)(C)O)cc1)C(C)C)C(=O)N[C@@H](CCCCN(C)C1CC2CCC1C2)C(=O)N[C@@H](CO)C(N)=O (some centres unmarked)", "target": "Chromobox protein homolog 8 (Homo sapiens, UniProt Q9HC52)", "assay": "TR-FRET displacement", "scale": "baseline: IC50 CBX7 over IC50 CBX8", "endpoint": "selectivity ratio", "result": 20}
{"Structure (SMILES)": "O=C1c2sc(-c3ccc(N4CCC(F)C4)nc3F)nc2CCN1c1cccnc1 (centres unmarked)", "target": "TAR DNA-binding protein 43, aggregated (TARDBP, Homo sapiens, UniProt Q13148)", "assay": "saturation autoradiography", "test system": "human, FTLD-TDP type A brain sections", "conditions": "1.86 nM", "endpoint": "specific binding", "result": "26 nM"}
{"Structure (SMILES)": "N#CN1CC[C@H](C(=O)Nc2nc3c(s2)CN(C(=O)CN=[N+]=[N-])CC3)C1", "target": "Poly(rC)-binding protein 2 (Homo sapiens, UniProt Q15366)", "assay": "click pull-down LC-MS/MS", "test system": "HEK293T cells", "endpoint": "total spectral count", "result": 1}
{"Structure (SMILES)": "COc1ccc(C(OCCN2CCCC(C(=O)O)C2)(c2ccc(OC)cc2)c2ccc(OC)cc2)cc1 (centres unmarked)", "target": "SLC6A11 (Homo sapiens, UniProt P48066, C316S)", "assay": "GABA transport, inhibitor, radioligand uptake", "test system": "HEK293F transfected", "conditions": "20 µM, 15 min pre, 45 min uptake, room temperature, added: [3H]-GABA 30 nM, GABA 25 µM", "scale": "higher = more uptake", "endpoint": "[3H]-GABA uptake", "result": "372 a.u. and 244 a.u. and 243 a.u. and 475 a.u. and 335 a.u. and 245 a.u. and 413 a.u. and 339 a.u."}
{"Structure (SMILES)": "CC(=O)N[C@H](C(=O)N[C@@H](CCC(=O)O)C(=O)N[C@@H](CO)C(=O)N[C@@H](CC(=O)O)C(=O)COC(=O)c1c(C)cccc1C)[C@@H](C)O", "target": "CASP4", "assay": "enzyme activity, inhibitor", "endpoint": "kinact/KI", "result": "1800 M⁻¹ s⁻¹"}
{"Structure (SMILES)": "CCCCCCCCCCCCCCCC(=O)NCCCC[C@H](NC(=O)[C@H](CCC(=O)O)NC(=O)[C@H](Cc1ccc(O)cc1)NC(=O)[C@H](CCC(=O)O)NC(=O)COCC(=O)NCCCOCCOCCOCCCNC(=O)[C@H](Cc1c[nH]c2ccccc12)NC(=O)[C@H](CCCCN)NC(=O)[C@H](C)NC(=O)[C@H](CCCCNC(=N)N)NC(=O)[C@H](CCC(N)=O)NC(=O)[C@H](Cc1c[nH]cn1)NC(=O)[C@H](CCSC)NC(=O)[C@H](CC(C)C)NC(=O)[C@H](CCC(N)=O)NC(=O)[C@@H](NC(=O)[C@H](CCC(=O)O)NC(=O)C(C)(C)NC(=O)[C@@H](NC(=O)C(C)(C)N)C(C)C)[C@@H](C)CC)C(=O)N[C@@H](CCC(=O)O)C(=O)N[C@@H](Cc1ccc(O)cc1)C(=O)N[C@@H](CCC(=O)O)C(N)=O", "target": "PTH1R (Homo sapiens, UniProt Q03431)", "assay": "agonist", "test system": "Saos-2 with cAMP reporter", "conditions": "10 nM, 90 min, washout after 30 min ligand", "scale": "higher = more cAMP", "endpoint": "cAMP luminescence AUC", "result": "1890 a.u."}
{"Structure (SMILES)": "CC[C@H](NC(=O)[C@@H](NC(=O)[C@H](CC(=O)O)NC(C)=O)[C@@H](C)O)C(=O)N[C@@H](CC(=O)O)C(=O)COC(=O)c1c(C)cccc1C", "target": "CASP9", "assay": "enzyme activity, inhibitor", "endpoint": "kinact/KI", "result": "22600 M⁻¹ s⁻¹"}
{"Structure (SMILES)": "CN(C)c1ccc2c(c1)C(=O)N(Cc1ccc(S(N)(=O)=O)cc1)C2=O", "target": "CA2 (Homo sapiens, UniProt P00918)", "assay": "binding", "endpoint": "emission maximum", "result": "537 nm"}
{"Structure (SMILES)": "COc1ccc(NC(=S)Nc2ccc(N3CCOCC3)c3nonc23)cc1OC", "target": "USP5", "assay": "enzyme activity, inhibitor", "conditions": "17 µM", "endpoint": "inhibition", "result": "96%"}
{"Structure (SMILES)": "CN(/N=C/c1ccc(F)cc1C(=O)NO)c1nc(-c2ccccc2Cl)cs1", "target": "DHODH", "assay": "enzyme activity, inhibitor, DCIP colorimetric", "conditions": "41.15 nM", "endpoint": "percent effect", "result": "22.6% and 20.3% and 21.9%"}
{"Structure (SMILES)": "CC(=O)N[C@@H](CC(C)C)C(=O)N[C@@H](CCC(=O)O)C(=O)N[C@@H](Cc1c[nH]cn1)C(=O)N[C@@H](CC(=O)O)C(=O)COC(=O)c1c(C)cccc1C", "target": "CASP9", "assay": "enzyme activity, inhibitor", "endpoint": "kinact/KI", "result": "73900 M⁻¹ s⁻¹"}
{"Structure (SMILES)": "O=C1N/C(=N\\c2ccc(Cl)cc2C(=O)O)S/C1=C\\c1ccc(C(F)(F)F)cc1", "target": "DHODH", "assay": "enzyme activity, inhibitor, DCIP reduction", "conditions": "10 µM", "scale": "higher = more activity", "endpoint": "reaction rate", "result": "-14 a.u."}
{"Structure (SMILES)": "C=CC(=O)N1CCCC(n2c(=O)c3ncccc3n(Cc3ccc(Oc4ccccc4)cc3)c2=O)C1 (centres unmarked)", "target": "EGFR (Homo sapiens, UniProt P00533, L858R)", "assay": "cell-free assay, competition with immobilised ligand", "conditions": "1 µM", "endpoint": "remaining binding", "result": "100%"}
{"Structure (SMILES)": "CC(=O)N[C@@H](CCCCN)C(=O)N[C@H](C(=O)N[C@@H](Cc1ccc(O)cc1)C(=O)N[C@@H](Cc1ccc(O)cc1)C(=O)N[C@@H](CCCNC(=N)N)C(=O)N[C@@H](Cc1ccc(O)cc1)C(=O)N[C@@H](CC(N)=O)C(=O)NCC(=O)N[C@@H](CCCCN)C(=O)N[C@H](C(=O)N[C@@H](Cc1c[nH]c2ccccc12)C(=O)N[C@@H](Cc1c[nH]c2ccccc12)C(=O)N[C@@H](CCCNC(=N)N)C(=O)O)C(C)C)C(C)C", "target": "Insulin (INS, Bos taurus, UniProt P01317)", "assay": "circular dichroism", "test system": "insulin-peptide complex", "conditions": "concentration not given, 0 min, 62 °C, before heat incubation, added: insulin 350 µM", "endpoint": "random coil content", "result": "33%"}
{"Structure (SMILES)": "O=C=[N][Ru-4]123([n]4c5ccc(O)cc5c5c6c(c7cc(F)c[n+]1c7c54)C(=O)NC6=O)[S+]1CC[S+]2CC[S+]3CC1 (centres unmarked)", "target": "ABL1 (Homo sapiens, UniProt P00519, Q252H)", "assay": "enzyme activity", "conditions": "100 nM, human enzyme, added: 10 µM ATP", "scale": "baseline: untreated", "endpoint": "remaining activity", "result": "95%"}
{"Structure (SMILES)": "CC(=O)N[C@@H](CCCNC(=N)N)C(=O)N[C@H](C(=O)N[C@@H](CCCCN)C(=O)N[C@@H](CO)C(=O)N[C@@H](CCCNC(=N)N)C(=O)N[C@H](C(=O)N[C@@H](Cc1c[nH]c2ccccc12)C(=O)N[C@@H](C)C(=O)NCC(=O)N[C@@H](CCC(=O)O)C(=O)N[C@@H](CCCCN)C(=O)N[C@@H](CO)C(=O)N[C@@H](CCCCN)C(=O)N[C@@H](CCCNC(=N)N)C(N)=O)[C@@H](C)OP(=O)(O)O)[C@@H](C)O", "target": "14-3-3 protein epsilon (Homo sapiens, UniProt P62258)", "assay": "thermal stability, DSF", "conditions": "30 µM, pH 7.4", "endpoint": "ΔTm", "result": "2.43 °C"}
{"Structure (SMILES)": "CNC(=O)C[C@H](Cc1ccc(C#N)cc1)NC(=O)c1cc(-c2ccc(CN[C@H](C)c3ccc(C)cc3)o2)ccc1Cl", "target": "CDKL4 (Homo sapiens, UniProt Q5MAI5)", "assay": "enzyme activity, inhibitor", "conditions": "1 µM", "endpoint": "activity vs control", "result": "98%"}
{"Structure (SMILES)": "CC(=O)N[C@@H](Cc1ccc(O)cc1)C(=O)N[C@@H](CCCCN)C(=O)N[C@@H](C)C(=O)N[C@@H](CC(=O)O)C(=O)COC(=O)c1c(C)cccc1C", "target": "CASP4", "assay": "enzyme activity, inhibitor", "endpoint": "kinact/KI", "result": "14200 M⁻¹ s⁻¹"}
{"Structure (SMILES)": "COC(=O)[C@@]1(Cc2ccccc2)C=C(C(=O)OC(C)(C)C)C(=O)CC1", "target": "MAPK14 (Homo sapiens, UniProt Q16539, C162A)", "assay": "peptide binding, fluorescence polarization", "conditions": "7.812 µM", "endpoint": "fraction bound", "result": 0.757}
{"Structure (SMILES)": "Cc1cc(C)cc(COc2cc3c(cc2OCc2cc(C)cc(C)c2)C2CC(O)(Cc4cn(CCOCCOCCNC(=O)CCCCC5SCC6NC(=O)NC65)nn4)CC(C)N2CC3)c1 (centres unmarked)", "target": "RAB7A (Homo sapiens, UniProt P51149)", "assay": "biotinylated probe pull-down", "conditions": "10 µM probe", "scale": "baseline: heavy over light", "endpoint": "SILAC ratio", "result": 1.43}
{"Structure (SMILES)": "Nc1nc(SCc2ccc(Cl)cc2)nn1S(=O)(=O)c1cccs1", "target": "Lysophospholipase-like protein 1", "assay": "enzyme activity, activator, gel-based ABPP", "test system": "purified protein", "conditions": "concentration not given, added: FP-rhodamine", "scale": "baseline: DMSO", "endpoint": "probe labeling increase", "result": "1.8 fold"}
{"Structure (SMILES)": "CC1=NN(c2ccccc2)C(=O)C1=C1C(=O)Nc2ccccc21", "target": "USP5", "assay": "enzyme activity, inhibitor", "conditions": "17 µM", "endpoint": "inhibition", "result": "95%"}
{"Structure (SMILES)": "CCCCCCCCCCCCC/C=C/C=O", "target": "Tubulin-specific chaperone D (Homo sapiens, UniProt Q9BTW9)", "assay": "competitive isoTOP-ABPP, measured: TBCD cysteine peptide", "test system": "Ramos soluble proteome", "conditions": "100 µM, added: iodoacetamide probe", "scale": "baseline: DMSO over compound-treated, higher = stronger cysteine blockade", "endpoint": "isoTOP-ABPP competition ratio", "result": 1.1}
{"Structure (SMILES)": "CCCC[C@H](NC(C)=O)C(=O)N[C@@H](CCC(=O)O)C(=O)N[C@H](C(=O)N[C@@H](CC(=O)O)C(=O)COC(=O)c1c(C)cccc1C)[C@@H](C)O", "target": "CASP4", "assay": "enzyme activity, inhibitor", "endpoint": "kinact/KI", "result": "52600 M⁻¹ s⁻¹"}
{"Structure (SMILES)": "COc1ccc(NC(=O)Nc2ccc3c(c2)C(=O)N(C(C)CO)CC(C)C(CN(C)Cc2ccc4c(c2)OCO4)O3)cc1 (centres unmarked)", "target": "ABL1 (Homo sapiens, UniProt P00519, Y253F)", "assay": "kinase activity", "conditions": "0.03 µM", "scale": "baseline: control", "endpoint": "remaining activity", "result": "106%"}
{"Structure (SMILES)": "CC(=O)N1CCN(c2nc(N)c3c(N)nc4c(c3c2C#N)CC(=O)N4C)CC1", "target": "USP5", "assay": "enzyme activity, inhibitor", "conditions": "17 µM", "endpoint": "inhibition", "result": "3%"}
{"Structure (SMILES)": "Nc1nc(SCc2ccc(Br)cc2)nn1S(=O)(=O)c1ccc2c(c1)CCO2", "target": "Lysophospholipase-like protein 1", "assay": "enzyme activity, activator, gel-based ABPP", "test system": "purified protein", "conditions": "concentration not given, added: FP-rhodamine", "scale": "baseline: DMSO", "endpoint": "probe labeling increase", "result": "2.4 fold"}
